Assay results of several laboratories.
Every numbered part comes from another study and shows a few of its results, in no order. Several values in a cell are separate wells, animals, samples, runs or records.
Sequence of UniProt O95747 (whole entry, looked up): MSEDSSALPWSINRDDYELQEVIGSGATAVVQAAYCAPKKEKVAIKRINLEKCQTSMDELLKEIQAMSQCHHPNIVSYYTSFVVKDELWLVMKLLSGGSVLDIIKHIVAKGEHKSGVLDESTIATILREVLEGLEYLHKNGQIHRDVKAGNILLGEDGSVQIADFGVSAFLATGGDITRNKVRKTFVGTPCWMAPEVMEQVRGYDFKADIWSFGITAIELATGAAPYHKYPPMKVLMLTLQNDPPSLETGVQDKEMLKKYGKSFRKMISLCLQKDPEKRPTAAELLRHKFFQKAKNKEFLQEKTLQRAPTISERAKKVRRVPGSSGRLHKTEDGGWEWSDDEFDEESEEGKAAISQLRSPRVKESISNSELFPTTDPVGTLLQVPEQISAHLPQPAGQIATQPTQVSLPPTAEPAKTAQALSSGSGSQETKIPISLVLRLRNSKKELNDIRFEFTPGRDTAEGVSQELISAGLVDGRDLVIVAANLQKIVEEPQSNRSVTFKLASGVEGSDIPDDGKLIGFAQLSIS
Sequence of UniProt Q13557 (whole entry, looked up): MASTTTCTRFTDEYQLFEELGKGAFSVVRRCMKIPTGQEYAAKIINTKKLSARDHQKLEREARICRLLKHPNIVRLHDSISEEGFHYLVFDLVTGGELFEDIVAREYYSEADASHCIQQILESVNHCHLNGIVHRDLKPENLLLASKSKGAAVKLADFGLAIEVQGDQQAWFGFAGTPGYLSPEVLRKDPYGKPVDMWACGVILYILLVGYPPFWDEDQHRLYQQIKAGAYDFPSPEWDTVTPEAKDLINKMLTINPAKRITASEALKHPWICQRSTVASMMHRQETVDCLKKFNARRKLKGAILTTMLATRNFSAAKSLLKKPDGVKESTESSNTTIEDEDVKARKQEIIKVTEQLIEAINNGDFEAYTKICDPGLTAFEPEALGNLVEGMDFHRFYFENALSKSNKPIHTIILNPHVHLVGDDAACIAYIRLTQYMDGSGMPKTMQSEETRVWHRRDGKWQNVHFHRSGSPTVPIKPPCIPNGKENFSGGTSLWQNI
Sequence of UniProt Q13976 (whole entry, looked up): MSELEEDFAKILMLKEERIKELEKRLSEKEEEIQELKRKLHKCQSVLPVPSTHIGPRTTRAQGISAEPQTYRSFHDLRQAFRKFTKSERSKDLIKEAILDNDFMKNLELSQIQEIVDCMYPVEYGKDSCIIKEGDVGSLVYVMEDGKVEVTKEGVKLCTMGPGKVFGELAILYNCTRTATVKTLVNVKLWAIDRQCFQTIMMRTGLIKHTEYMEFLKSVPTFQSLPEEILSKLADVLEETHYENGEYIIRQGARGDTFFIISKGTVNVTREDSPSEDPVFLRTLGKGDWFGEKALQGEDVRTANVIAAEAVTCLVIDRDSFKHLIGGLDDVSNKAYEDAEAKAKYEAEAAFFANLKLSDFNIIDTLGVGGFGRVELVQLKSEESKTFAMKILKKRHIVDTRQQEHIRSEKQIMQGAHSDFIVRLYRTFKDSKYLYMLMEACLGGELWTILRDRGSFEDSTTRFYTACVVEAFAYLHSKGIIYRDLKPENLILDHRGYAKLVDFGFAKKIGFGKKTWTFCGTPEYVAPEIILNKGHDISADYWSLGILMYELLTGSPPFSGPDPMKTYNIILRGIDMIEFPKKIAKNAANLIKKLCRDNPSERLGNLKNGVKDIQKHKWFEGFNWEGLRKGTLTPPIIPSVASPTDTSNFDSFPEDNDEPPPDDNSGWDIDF
Sequence of UniProt P07948 (whole entry, looked up): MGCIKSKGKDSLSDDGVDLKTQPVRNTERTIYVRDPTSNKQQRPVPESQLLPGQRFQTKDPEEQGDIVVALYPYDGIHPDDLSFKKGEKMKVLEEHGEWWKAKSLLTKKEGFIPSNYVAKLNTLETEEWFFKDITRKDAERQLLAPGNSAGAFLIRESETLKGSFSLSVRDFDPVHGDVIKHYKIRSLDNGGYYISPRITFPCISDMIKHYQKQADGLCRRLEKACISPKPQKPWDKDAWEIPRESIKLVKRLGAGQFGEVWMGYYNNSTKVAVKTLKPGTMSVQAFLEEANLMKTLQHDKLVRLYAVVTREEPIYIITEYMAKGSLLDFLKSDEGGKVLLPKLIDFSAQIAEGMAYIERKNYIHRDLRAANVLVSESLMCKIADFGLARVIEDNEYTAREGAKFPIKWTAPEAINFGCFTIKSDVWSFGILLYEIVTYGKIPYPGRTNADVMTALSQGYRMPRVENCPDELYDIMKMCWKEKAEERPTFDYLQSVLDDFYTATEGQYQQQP
Sequence of UniProt P37173 (whole entry, looked up): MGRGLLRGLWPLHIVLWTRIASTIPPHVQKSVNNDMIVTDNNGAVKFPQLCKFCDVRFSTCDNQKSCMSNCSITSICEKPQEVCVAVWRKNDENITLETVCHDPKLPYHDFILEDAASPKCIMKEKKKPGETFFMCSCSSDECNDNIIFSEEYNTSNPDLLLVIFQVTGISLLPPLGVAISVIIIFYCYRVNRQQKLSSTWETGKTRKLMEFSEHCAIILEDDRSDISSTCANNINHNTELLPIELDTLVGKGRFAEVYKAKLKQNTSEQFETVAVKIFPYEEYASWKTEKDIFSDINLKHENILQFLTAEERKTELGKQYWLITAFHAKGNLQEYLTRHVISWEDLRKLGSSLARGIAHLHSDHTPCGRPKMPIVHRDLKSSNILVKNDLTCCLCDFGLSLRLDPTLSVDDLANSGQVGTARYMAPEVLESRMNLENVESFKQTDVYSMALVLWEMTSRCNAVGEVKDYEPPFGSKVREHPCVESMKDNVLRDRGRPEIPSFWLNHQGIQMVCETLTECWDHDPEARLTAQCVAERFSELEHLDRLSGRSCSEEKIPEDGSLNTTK
Sequence of UniProt O96017 (whole entry, looked up): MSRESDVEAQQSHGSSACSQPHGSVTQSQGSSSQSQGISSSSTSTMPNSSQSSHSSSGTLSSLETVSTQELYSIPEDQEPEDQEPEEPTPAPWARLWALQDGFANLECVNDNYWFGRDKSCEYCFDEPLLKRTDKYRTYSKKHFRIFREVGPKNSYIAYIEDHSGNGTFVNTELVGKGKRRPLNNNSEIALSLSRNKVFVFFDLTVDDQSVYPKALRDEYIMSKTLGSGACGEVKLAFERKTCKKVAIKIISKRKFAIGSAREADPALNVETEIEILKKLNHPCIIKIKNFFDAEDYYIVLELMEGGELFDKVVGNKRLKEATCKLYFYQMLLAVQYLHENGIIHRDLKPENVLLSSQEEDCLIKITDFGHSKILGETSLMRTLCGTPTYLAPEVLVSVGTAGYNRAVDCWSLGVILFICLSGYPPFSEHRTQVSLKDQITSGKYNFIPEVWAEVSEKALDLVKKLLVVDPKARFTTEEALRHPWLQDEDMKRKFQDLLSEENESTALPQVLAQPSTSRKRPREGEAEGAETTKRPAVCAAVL
Sequence of UniProt Q99759 (whole entry, looked up): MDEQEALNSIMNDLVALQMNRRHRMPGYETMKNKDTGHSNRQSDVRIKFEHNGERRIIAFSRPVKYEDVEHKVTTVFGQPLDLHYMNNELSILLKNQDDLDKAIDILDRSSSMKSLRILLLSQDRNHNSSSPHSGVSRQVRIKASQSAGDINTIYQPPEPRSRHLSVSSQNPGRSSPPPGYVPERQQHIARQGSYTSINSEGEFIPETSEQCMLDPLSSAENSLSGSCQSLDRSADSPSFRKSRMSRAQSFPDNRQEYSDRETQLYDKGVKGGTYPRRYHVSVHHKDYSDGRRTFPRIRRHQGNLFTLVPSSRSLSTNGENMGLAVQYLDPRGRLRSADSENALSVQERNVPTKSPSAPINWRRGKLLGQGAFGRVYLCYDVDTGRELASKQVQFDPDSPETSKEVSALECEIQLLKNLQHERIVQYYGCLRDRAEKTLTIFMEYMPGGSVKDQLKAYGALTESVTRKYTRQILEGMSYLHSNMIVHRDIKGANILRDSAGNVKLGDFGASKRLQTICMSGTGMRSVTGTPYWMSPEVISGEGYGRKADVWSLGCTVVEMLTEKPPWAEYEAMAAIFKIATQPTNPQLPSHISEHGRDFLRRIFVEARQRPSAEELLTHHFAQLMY
Sequence of UniProt Q15569 (whole entry, looked up): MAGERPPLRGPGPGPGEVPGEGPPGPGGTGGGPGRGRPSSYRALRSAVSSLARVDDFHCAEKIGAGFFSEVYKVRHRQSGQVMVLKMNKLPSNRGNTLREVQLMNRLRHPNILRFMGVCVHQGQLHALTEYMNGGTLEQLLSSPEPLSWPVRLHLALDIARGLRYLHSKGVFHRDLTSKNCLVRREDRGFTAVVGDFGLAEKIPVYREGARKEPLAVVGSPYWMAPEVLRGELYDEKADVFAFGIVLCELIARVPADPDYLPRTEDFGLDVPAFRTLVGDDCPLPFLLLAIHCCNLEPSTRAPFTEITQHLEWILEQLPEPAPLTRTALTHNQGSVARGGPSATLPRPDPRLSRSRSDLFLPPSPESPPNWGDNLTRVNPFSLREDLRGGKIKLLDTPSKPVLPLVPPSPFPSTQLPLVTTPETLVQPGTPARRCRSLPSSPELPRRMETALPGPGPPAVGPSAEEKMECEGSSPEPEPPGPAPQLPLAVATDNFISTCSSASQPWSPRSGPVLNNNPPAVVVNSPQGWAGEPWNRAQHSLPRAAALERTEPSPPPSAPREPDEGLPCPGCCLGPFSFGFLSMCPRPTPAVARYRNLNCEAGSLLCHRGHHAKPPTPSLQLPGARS

Sample 1
Host: mouse
Sample: microsomes or S9
Concentration: 2 µM
Time: 0.5 h
Structure (SMILES) | remaining compound [%]
O=C1NCC(Cn2c3ccccc3c3ccccc32)O1 (stereo not drawn) | 14.6
CC(C)C(=O)N1CCN(c2cnc(N)c(-c3nc4ccccc4o3)c2)CC1 | 42.1
CN(C)c1noc(C2CCCN(c3nccnc3C#N)C2)n1 (stereo not drawn) | 56.5

Sample 2
Structure (SMILES): c1ccc2c(-c3ccncc3)c[nH]c2c1
Observed: enzyme activity
Action: inhibitor
Concentration: 0.5 µM
Reference: control
target | remaining activity [%]
DAPK2 (Homo sapiens, UniProt Q9UIK4) | 108
IKBKE (Homo sapiens, UniProt Q14164) | 96.4
MAP3K3 (Homo sapiens, UniProt Q99759) | 103
CAMKK2 (Homo sapiens, UniProt Q96RR4) | 113
OXSR1 (Homo sapiens, UniProt O95747) | 97.2
IKBKB (Homo sapiens, UniProt O14920) | 102
DAPK1 (Homo sapiens, UniProt P53355) | 97.7
PRKCA (Homo sapiens, UniProt P17252) | 97.4
Cyclin-dependent kinase 4, with cyclin D1 (CDK4, Homo sapiens, UniProt P11802) | 112
CAMK2D (Homo sapiens, UniProt Q13557) | 103
STK11 (Homo sapiens, UniProt Q15831) | 90.7
STK10 (Homo sapiens, UniProt O94804) | 93.7
cGMP-dependent protein kinase 1, isoform beta (PRKG1, Homo sapiens, UniProt Q13976) | 77.7
MAPK9 (Homo sapiens, UniProt P45984) | 103
NEK2 (Homo sapiens, UniProt P51955) | 106
STK39 (Homo sapiens, UniProt Q9UEW8) | 99.8
PRKACA (Homo sapiens, UniProt P17612) | 91.6
CHEK2 (Homo sapiens, UniProt O96017) | 99.3
GRK3 (Homo sapiens, UniProt P35626) | 95.4
Tyrosine-protein kinase Lyn, isoform B (LYN, Homo sapiens, UniProt P07948) | 100
TGFBR2 (Homo sapiens, UniProt P37173) | 119
Cyclin-dependent kinase 5, with p25 (CDK5, Homo sapiens, UniProt Q00535) | 92
TGFBR1 (Homo sapiens, UniProt P36897) | 103
Protein kinase C beta type, isoform beta-I (PRKCB, Homo sapiens, UniProt P05771) | 95.1

Sample 3
Target: Microphthalmia-associated transcription factor, full length (MITF, Homo sapiens, UniProt O75030-10, residues 1-413)
Technique: protein-binding microarray
Molecule type: double-stranded DNA, one strand shown
Sample: in vitro
Concentration: not given
Setting: k-mer, scored over probes, only values ≥0.25
Direction: higher = stronger binding
Residues (chain): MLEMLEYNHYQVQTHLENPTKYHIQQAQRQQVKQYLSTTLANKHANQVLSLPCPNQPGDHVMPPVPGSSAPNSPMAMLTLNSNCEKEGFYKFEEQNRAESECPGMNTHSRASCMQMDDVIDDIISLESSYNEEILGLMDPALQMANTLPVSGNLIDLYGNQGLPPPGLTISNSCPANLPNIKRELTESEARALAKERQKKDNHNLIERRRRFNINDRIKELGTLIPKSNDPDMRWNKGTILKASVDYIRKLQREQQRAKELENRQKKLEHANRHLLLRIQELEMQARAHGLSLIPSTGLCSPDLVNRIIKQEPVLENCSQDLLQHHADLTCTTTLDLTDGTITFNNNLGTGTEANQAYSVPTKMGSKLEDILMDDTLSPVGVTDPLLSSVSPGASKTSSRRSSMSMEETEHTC
Strand | E-score
CCACGAG | 0.407
CATGTGA | 0.483
CAGATGA | 0.309
ACTCATG | 0.266
CCCACGA | 0.258
CACATGA | 0.476
TGATGCA | 0.268
CCGTGAC | 0.436

Sample 4
SMILES: CCC(=O)N[C@H]1CC[C@@H](C(=O)N(C)c2ccc(-c3nc4ccccc4o3)cc2)C1
Observed: cell-free assay
Technique: competition with immobilised ligand
Concentration: 1 µM
target | remaining binding [%]
CSNK1G2 (Homo sapiens, UniProt P78368) | 100
TESK1 (Homo sapiens, UniProt Q15569) | 100
EPHA7 (Homo sapiens, UniProt Q15375) | 97

Sample 5
Cell line: mouse MPNST tumor cells
Technique: high-content nuclear imaging
Item: cell number
Concentration: 10 µM
Time: 12 h
Setting: mean of 2 replicates
Reference: plate mean
Direction: higher = more cells
Structure (SMILES) | nuclei count
Cn1c(=O)c2c(ncn2C)n(C)c1=O | 0.826 z-score and 1.02 z-score
CCOC(=O)[C@H](Cc1ccc([N+](=O)[O-])cc1)NC(=O)c1ccccc1 | 0.158 z-score
CCN1CCC[C@H]1CNC(=O)c1c(O)c(Cl)cc(Cl)c1OC | -0.825 z-score and -1.01 z-score
COc1cnc(NS(=O)(=O)c2ccc(N)cc2)nc1 | 0.794 z-score and 1.5 z-score

Sample 6
Target: Centromere-binding protein 1, full length, His-tagged (CBF1, Saccharomyces cerevisiae, UniProt P17106, residues 1-351)
Sequence of UniProt P17106 (whole entry, looked up): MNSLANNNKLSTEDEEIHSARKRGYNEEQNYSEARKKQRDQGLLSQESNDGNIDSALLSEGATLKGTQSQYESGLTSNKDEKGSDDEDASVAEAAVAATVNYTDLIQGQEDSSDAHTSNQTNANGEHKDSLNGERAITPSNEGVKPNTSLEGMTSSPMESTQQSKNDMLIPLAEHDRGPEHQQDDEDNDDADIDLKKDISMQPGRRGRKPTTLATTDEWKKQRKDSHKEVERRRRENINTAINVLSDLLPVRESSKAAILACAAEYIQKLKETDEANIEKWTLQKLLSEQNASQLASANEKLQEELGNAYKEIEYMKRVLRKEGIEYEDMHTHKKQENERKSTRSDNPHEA
Technique: competition protein-binding microarray
Molecule type: double-stranded DNA, one strand shown
Sample: in vitro
Concentration: 2 µM
Setting: whole 60-bp probe, lowest competitor level
Together with: Pho4 competitor, 0.05 µM
Direction: higher = stronger binding
Strand | fluorescence intensity [a.u.]
AGACGAGGCAAAAGACACATGGTCGGCCCGTAACCAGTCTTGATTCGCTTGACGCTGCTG | 83.3
CATACCCAACCTTGCGAAGTGGGTGAAGATATTTGTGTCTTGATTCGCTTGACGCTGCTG | 57.3
AAAAACTCCAAGGAACGCGTGTCGGCCGTAATCGTTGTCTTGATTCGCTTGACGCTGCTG | 62.8
TAACCCACCTTGGGCCACGTGGAAACCAGGGGCCAGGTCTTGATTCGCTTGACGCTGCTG | 483
CGTCCTAGTGATTGTCAAGTGGGTGCCATGAGGAAGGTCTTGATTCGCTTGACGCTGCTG | 98.5
TGGTAATTCAACCGTCACGGGTGTAGAAAATGGTGAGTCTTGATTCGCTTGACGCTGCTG | 473
CATTCAATTCCGAGTCACGTGGGTAAATGATAATGGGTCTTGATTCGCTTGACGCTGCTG | 12400
CTTCTGTAAATTTGACTAGTGGGTGGACGCGCCCCGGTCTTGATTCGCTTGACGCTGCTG | 79.5

Single results of other studies
SMILES | cell line | conditions | endpoint | result
O=C(O)CN(CCN(CC(=O)O)CC(=O)O)CC(=O)O | HaCaT | 100 µM, 60 h | viability | 146%

Excerpt of the above (sample 6):
Strand | fluorescence intensity [a.u.]
CGTCCTAGTGATTGTCAAGTGGGTGCCATGAGGAAGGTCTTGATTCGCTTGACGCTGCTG | 98.5
TGGTAATTCAACCGTCACGGGTGTAGAAAATGGTGAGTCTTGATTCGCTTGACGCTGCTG | 473
CATTCAATTCCGAGTCACGTGGGTAAATGATAATGGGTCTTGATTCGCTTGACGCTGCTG | 12400
CTTCTGTAAATTTGACTAGTGGGTGGACGCGCCCCGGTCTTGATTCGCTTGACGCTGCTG | 79.5
